# Measured values collected from several papers.
# Protocols differ between the studies behind these lines.
# Target: Dual specificity mitogen-activated protein kinase kinase 2 (MAP2K2, Homo sapiens, UniProt P36507)
Compound,test,system,setting,scale,measurement,result
CCn1cc(C(=O)O)c(=O)c2c(N)c(F)c(NC3CCCCC3)cc21,kinase activity,,"0.1 µM, added: ATP at Km",,inhibition,4.3%
C=CC(=O)Nc1cc(-c2nn(C3CCN(CCNC(=O)[C@H](C)CCC45CC6CC(CC(C6)C4)C5)CC3)c3ncnc(N)c23)ccc1Oc1ccccc1,"inhibitor, KiNativ profiling",biochemical,2 µM,,inhibition,40%
C=CC(=O)N1CCCC(n2c(=O)c3ncccc3n(Cc3ccc(Oc4ccccc4)cc3)c2=O)C1 (stereo not shown),"cell-free assay, competition with immobilised ligand",,1 µM,,remaining binding,72%
CNC1C[S+]2CC[S+]3CC[S+](C1)[Ru-4]321([N]=C=S)[n]2c3ccc(OC)cc3c3c4c(c5cc(F)c[n+]1c5c32)C(=O)NC4=O (stereo not shown),KinomeScan,,0.1 µM,reference: untreated,remaining binding,100%
COc1ccc(C(=O)/C=C/c2ccccc2-c2c[nH]c3ccc(C#N)cc23)c(O)c1,"enzyme activity, inhibitor",,20 µM,,inhibition,12%
COc1cc(Nc2nccc(-c3cnn4nc(OC)ccc34)n2)cc(C(F)(F)F)c1,"binding, competition with immobilised ligand",,1 µM,,remaining binding,83%
CN1CCN(Cc2ccc(NC(=O)c3cccc(C#Cc4cnc(N)c5ncccc45)c3)cc2C(F)(F)F)CC1,"cell-free assay, competition with immobilised ligand",,50 nM,,remaining binding,70%
NC(=O)C[C@H]1CCc2sc3ncnc(O[C@H]4CC[C@H](N5CCOCC5)CC4)c3c21,"enzyme activity, inhibitor",,10 µM,,inhibition,2%
COc1c(Cl)cccc1Nc1c(-c2ccncc2C#C[C@@]2(C)CCCN2C(=O)/C=C/CN(C)C)[nH]c2c1C(=O)NCC2,"cell-free assay, competition with immobilised ligand",,3 µM,,remaining binding,84%
Cc1cccc(O[C@H]2CCC[C@@H](C(C)CNCc3ccncc3)C2)c1 (relative stereo),"enzyme activity, inhibitor",,1 µM,,inhibition,-2%
Cc1cnc2nc1Nc1cccc(c1)COC/C=C/COCc1cc(ccc1OCCN1CCOCC1)N2,"binding, competition with immobilised ligand",,0.1 µM,,remaining binding,75%
COc1ccc(NC(=O)Nc2ccc3c(c2)C(=O)N(C(C)CO)CC(C)C(CN(C)Cc2ccc4c(c2)OCO4)O3)cc1 (stereo not shown),"binding, competition with immobilised ligand",,10 µM,,remaining binding,73%
CNC(=O)C[C@H](Cc1ccc(C#N)cc1)NC(=O)c1cc(-c2ccc(CN[C@H](C)c3ccc(C)cc3)o2)ccc1Cl,"enzyme activity, inhibitor",,1 µM,,activity vs control,113%
C=CC(=O)Nc1cccc(-c2cnc3[nH]cc(C(=O)NC(C)(C)C)c3n2)c1,"enzyme activity, inhibitor",,0.1 µM,,inhibition,5%
CC(=O)N1c2ccc(-c3ccc(CNC(=O)c4cn5cc(-c6cnc(N)nc6)nc(N6CCOCC6)c5n4)cc3)cc2CC[C@@H]1C,KINOMEscan,,10 µM,,remaining binding,75%
CCN1CCN(Cc2ccc(C(=O)Nc3ccc(C)c(NCc4cnc5[nH]ccc5c4OC)c3)cc2C(F)(F)F)CC1,"binding, competition with immobilised ligand",,1 µM,,remaining binding,78%

# For quick reference, copied from above:
Compound,test,system,setting,scale,measurement,result
CCN1CCN(Cc2ccc(C(=O)Nc3ccc(C)c(NCc4cnc5[nH]ccc5c4OC)c3)cc2C(F)(F)F)CC1,"binding, competition with immobilised ligand",,1 µM,,remaining binding,78%
CCn1cc(C(=O)O)c(=O)c2c(N)c(F)c(NC3CCCCC3)cc21,kinase activity,,"0.1 µM, added: ATP at Km",,inhibition,4.3%
C=CC(=O)Nc1cccc(-c2cnc3[nH]cc(C(=O)NC(C)(C)C)c3n2)c1,"enzyme activity, inhibitor",,0.1 µM,,inhibition,5%
